Results of several laboratories.
A part holds a random share of what one study measured. Positions count from the first letter of the parent shown.

Block 1
Target: Centromere-binding protein 1, full length, His-tagged (CBF1, Saccharomyces cerevisiae, UniProt P17106, residues 1-351)
Sequence of UniProt P17106 (whole entry, looked up): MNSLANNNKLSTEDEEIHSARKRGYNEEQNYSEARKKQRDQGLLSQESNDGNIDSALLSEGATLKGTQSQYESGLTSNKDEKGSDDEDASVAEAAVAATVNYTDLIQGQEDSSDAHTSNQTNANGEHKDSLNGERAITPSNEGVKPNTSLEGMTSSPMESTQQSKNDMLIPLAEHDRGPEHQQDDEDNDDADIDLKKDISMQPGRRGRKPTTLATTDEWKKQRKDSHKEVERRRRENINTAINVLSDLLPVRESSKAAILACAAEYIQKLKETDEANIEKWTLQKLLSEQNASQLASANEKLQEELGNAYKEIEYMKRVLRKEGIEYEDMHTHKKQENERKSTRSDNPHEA
Technique: competition protein-binding microarray
Molecule type: double-stranded DNA, one strand shown
Medium: in vitro
Concentration: 2 µM
Setting: whole 60-bp probe, lowest competitor level
With: Pho4 competitor, 0.05 µM
Direction: higher = stronger binding
Constant ends, left off below: … GTCTTGATTCGCTTGACGCTGCTG
Sequence | fluorescence intensity [a.u.]
GATAAGCTAACGAACCTCATGACGCACAAGGACGAA | 97.2
GATGGGTAACCTGTTTCCGTGACGGAAACATTAGAA | 74.5
TTTTTTTTCCGTAGTGCCGTGCCGACATTACCGAAT | 71.3
TTTTTCGATTTTGTTTTTGTGTCGCAAAATAACTAA | 93.2
CTTTCCCGATCTTGTCACGAGACTTTAGCACATTTG | 1090
TGCGCAACAACTTGGCTGGTGGGTGTATGTCTAGAA | 61.4
GAACTGCTTCGAAAACACGTGTTCCCCTCCGTTCCA | 1910
AAATTACTAAGTTGGTGTGTGGGTGACGCCGTATGA | 78.6

Block 2
Target: PABPC1L2, full length, GST fusion (mouse, UniProt A0ABA7IW68)
Technique: RNAcompete
Molecule type: RNA
Medium: in vitro
Concentration: 20 nM
Setting: 7-mer, probes averaged, single round
Reference: mean of 7-mers
Direction: higher = stronger binding
Residues (chain): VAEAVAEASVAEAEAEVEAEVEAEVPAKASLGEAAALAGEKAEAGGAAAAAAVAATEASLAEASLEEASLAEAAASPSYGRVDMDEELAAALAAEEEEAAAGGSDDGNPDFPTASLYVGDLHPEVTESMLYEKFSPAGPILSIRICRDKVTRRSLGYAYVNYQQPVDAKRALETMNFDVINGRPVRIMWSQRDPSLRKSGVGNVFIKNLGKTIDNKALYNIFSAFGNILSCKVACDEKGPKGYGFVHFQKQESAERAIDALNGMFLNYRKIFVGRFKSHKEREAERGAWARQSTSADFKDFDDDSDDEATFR
Sequence | 7-mer Z-score
GCAGCAA | 0.106
GUAGUGC | -0.177
UACAUAA | 0.582
AUACGCC | -0.284
CUCUUGG | -0.34
GCAAAAC | 1.41
UACACUU | -0.171
CUCUCAU | -0.367

Other studies, line by line
P1: viral docking peptide; KKVKRRLFETREL; partner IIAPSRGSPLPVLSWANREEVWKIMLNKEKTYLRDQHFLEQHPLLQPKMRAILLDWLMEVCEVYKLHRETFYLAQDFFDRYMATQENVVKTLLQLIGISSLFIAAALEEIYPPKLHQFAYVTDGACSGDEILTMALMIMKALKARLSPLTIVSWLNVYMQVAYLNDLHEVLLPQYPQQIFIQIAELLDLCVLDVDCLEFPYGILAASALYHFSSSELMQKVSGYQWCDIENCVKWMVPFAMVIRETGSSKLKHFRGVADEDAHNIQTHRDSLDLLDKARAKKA
Substance | target | test | test system | setting | scale | quantity | result
PhoQ, residues 284 288 289 292 302 303 SASVAL | PhoP, residues 12 14 15 18 19 LQHIR (Escherichia coli, UniProt P23836) | Sort-seq, measured: YFP reporter | E. coli | PhoQ-PhoP variant library, with: 10 µM Mg2+ | reference: high Mg2+ state, higher = stronger signaling | fold induction | 3.07
P1 K2A | CCNE1, cyclin fold, Cln2 fusion (human) | yeast growth competition, sequencing | yeast | strong parent motif | reference: not given, higher = stronger binding | normalised enrichment score | 5.71
